Published values collected from several papers.
Numbered parts are unrelated; each lists some results of a single study.
UniProt P36897, sequence (whole entry, looked up): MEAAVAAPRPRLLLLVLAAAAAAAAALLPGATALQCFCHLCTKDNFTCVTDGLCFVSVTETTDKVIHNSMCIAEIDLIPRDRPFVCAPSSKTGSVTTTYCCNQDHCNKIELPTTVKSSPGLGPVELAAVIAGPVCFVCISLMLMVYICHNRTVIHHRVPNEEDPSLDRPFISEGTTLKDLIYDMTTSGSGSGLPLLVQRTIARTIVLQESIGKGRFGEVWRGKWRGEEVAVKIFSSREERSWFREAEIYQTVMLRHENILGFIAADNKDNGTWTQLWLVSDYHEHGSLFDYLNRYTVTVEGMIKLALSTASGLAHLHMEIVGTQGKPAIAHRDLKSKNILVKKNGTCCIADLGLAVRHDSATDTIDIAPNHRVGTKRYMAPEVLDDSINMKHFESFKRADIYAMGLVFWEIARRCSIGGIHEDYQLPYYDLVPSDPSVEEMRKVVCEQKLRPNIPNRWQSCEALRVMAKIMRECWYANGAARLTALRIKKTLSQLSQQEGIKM
UniProt Q9BQI3, sequence (whole entry, looked up): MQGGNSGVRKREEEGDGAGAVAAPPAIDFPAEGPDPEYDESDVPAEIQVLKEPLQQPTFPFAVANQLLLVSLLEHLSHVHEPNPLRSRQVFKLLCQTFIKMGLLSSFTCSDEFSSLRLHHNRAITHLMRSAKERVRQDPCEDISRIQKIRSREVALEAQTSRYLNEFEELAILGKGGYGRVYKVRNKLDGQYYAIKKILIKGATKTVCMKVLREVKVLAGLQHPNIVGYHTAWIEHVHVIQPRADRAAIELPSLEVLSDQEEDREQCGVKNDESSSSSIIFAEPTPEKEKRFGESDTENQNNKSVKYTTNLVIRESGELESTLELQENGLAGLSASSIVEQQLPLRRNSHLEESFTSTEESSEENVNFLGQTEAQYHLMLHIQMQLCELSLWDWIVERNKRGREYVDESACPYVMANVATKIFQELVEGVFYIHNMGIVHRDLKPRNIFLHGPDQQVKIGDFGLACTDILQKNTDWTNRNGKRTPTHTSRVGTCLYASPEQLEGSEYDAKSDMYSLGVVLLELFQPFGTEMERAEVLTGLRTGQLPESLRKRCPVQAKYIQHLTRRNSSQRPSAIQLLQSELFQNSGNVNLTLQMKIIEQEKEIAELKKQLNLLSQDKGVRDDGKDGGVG
UniProt Q92772, sequence (whole entry, looked up): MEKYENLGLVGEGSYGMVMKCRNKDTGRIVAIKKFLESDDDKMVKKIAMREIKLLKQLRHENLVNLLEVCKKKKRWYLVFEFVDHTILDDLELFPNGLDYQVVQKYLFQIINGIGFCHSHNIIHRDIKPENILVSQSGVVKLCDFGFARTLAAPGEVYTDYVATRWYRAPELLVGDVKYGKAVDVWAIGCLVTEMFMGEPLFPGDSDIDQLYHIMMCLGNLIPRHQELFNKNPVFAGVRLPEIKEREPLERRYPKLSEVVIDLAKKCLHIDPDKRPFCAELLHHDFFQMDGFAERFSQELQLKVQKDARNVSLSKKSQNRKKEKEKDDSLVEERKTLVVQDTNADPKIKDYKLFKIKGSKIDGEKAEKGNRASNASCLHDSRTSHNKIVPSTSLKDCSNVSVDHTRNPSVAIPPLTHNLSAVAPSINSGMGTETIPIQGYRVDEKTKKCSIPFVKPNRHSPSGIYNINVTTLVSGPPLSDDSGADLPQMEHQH
UniProt Q9NY57, sequence (whole entry, looked up): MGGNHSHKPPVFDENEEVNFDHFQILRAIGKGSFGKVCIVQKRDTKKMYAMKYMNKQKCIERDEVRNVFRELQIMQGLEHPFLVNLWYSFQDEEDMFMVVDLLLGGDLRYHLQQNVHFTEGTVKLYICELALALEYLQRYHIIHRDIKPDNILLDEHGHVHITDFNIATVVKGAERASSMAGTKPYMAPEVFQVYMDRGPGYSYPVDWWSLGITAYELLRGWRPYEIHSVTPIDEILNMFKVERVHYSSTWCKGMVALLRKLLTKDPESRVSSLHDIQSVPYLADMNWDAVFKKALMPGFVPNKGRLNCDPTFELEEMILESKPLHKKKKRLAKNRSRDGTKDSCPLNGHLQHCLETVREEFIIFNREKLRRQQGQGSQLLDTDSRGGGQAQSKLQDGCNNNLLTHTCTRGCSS
UniProt Q32MK0, sequence (whole entry, looked up): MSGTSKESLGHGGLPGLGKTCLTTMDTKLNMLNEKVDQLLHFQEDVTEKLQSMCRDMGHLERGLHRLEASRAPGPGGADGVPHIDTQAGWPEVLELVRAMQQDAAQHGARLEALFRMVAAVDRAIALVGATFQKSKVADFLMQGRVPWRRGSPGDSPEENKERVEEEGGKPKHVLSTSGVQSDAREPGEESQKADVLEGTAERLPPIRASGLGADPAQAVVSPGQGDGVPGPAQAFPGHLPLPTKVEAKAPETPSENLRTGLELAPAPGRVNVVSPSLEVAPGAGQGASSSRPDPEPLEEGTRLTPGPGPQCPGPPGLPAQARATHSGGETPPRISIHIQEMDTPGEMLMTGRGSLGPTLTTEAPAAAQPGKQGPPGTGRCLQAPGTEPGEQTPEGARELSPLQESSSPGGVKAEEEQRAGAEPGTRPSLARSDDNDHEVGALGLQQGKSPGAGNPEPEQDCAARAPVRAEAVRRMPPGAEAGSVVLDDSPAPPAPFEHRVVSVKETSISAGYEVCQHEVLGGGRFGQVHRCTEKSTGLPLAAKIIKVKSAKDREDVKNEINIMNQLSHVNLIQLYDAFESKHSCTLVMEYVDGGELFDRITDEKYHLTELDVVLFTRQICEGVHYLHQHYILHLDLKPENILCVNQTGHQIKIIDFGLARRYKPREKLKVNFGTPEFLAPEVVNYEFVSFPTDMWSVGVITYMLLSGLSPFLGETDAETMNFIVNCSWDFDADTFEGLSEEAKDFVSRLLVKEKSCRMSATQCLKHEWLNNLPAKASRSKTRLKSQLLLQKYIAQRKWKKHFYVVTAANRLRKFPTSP
UniProt Q9H2G2, sequence (whole entry, looked up): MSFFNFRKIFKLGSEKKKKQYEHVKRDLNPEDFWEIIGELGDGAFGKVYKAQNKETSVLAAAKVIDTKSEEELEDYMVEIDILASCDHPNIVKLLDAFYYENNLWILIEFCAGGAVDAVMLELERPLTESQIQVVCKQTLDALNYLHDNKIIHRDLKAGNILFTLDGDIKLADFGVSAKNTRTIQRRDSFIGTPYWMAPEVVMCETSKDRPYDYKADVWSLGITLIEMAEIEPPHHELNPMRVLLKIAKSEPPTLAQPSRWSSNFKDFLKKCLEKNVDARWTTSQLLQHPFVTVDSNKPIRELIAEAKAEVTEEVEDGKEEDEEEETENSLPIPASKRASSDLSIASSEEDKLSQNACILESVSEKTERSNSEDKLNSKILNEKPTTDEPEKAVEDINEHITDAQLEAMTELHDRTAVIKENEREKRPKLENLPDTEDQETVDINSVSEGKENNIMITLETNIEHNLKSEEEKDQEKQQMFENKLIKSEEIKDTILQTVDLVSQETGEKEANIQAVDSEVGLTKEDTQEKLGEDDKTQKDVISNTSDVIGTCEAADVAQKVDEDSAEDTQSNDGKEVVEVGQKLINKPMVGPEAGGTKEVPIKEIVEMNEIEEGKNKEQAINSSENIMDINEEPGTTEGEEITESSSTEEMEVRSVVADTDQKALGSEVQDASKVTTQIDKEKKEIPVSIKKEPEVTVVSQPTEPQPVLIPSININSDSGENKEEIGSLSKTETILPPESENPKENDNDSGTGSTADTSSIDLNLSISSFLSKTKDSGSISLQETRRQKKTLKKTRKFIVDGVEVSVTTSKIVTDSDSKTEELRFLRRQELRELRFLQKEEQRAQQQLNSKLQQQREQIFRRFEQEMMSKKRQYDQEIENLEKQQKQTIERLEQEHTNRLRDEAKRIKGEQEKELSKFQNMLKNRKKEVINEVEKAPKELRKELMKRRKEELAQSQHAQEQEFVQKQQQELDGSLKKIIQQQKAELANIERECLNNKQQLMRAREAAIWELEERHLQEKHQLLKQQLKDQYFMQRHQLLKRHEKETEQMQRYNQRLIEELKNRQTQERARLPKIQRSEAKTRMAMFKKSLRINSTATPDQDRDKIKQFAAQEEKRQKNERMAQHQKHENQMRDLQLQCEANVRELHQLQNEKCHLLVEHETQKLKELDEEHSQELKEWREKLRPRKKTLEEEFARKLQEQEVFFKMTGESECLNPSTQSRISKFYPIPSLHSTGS

Block 1
SMILES: CNC(=O)Nc1ccc2c(c1)[C@@]1(CC2)OC(=O)N(CC(=O)N(Cc2ccc(F)cc2)[C@@H](C)C(F)(F)F)C1=O
Read-out: cell-free assay
Method: competition with immobilised ligand
Concentration: 1 µM
ALK (Homo sapiens, UniProt Q9UM73, L1196M) — remaining binding: 88%.
For SLK (Homo sapiens, UniProt Q9H2G2): remaining binding read 83%.
The remaining binding was 83% (CDKL2 (Homo sapiens, UniProt Q92772)).
For TRPM6 (Homo sapiens, UniProt Q9BX84): remaining binding read 98%.
It gave 100% for remaining binding (TESK1 (Homo sapiens, UniProt Q15569)).
It gave 83% for remaining binding (Tyrosine-protein kinase ABL1, phosphorylated (ABL1, Homo sapiens, UniProt P00519, H396P)).
It gave 93% for remaining binding (MAP3K20 (Homo sapiens, UniProt Q9NYL2)).
It gave 89% for remaining binding (TGFBR1 (Homo sapiens, UniProt P36897)).
For CAMK2G (Homo sapiens, UniProt Q13555): remaining binding read 98%.
For MAP3K12 (Homo sapiens, UniProt Q12852): remaining binding read 100%.
It gave 89% for remaining binding (Mast/stem cell growth factor receptor Kit, autoinhibited (KIT, Homo sapiens, UniProt P10721)).
It gave 91% for remaining binding (PRKCI (Homo sapiens, UniProt P41743)).
MYLK3 (Homo sapiens, UniProt Q32MK0) — remaining binding: 85%.
Tyrosine-protein kinase ABL1, phosphorylated (ABL1, Homo sapiens, UniProt P00519, E255K) — remaining binding: 100%.
The remaining binding was 82% (NTRK3 (Homo sapiens, UniProt Q16288)).
EIF2AK1 (Homo sapiens, UniProt Q9BQI3) — remaining binding: 96%.
PIK3CA (Homo sapiens, UniProt P42336, M1043I) — remaining binding: 100%.
PRKCE (Homo sapiens, UniProt Q02156) — remaining binding: 99%.
For LRRK2 (Homo sapiens, UniProt Q5S007): remaining binding read 71%.
It gave 82% for remaining binding (Ribosomal protein S6 kinase alpha-6, N-terminal kinase domain (RPS6KA6, Homo sapiens, UniProt Q9UK32)).
GRK1 (Homo sapiens, UniProt Q15835) — remaining binding: 73%.
For STK32B (Homo sapiens, UniProt Q9NY57): remaining binding read 67%.

Block 2
SMILES: CC(=O)N[C@@H](Cc1c[nH]c2ccccc12)C(=O)N[C@@H](CCC(=O)C=[N+]=[N-])C(=O)OC(C)C
Sample: EL4 tumour
Dose: dose not given
Reference: vehicle
measured: 2-aminoadipate; mouse, EL4 tumour-bearing — “log2 fold change”: 0.497.
For measured: phenylacetylglycine; mouse, EL4 tumour-bearing: “log2 fold change” read 0.285.
It gave 0.34 for “log2 fold change” (measured: xanthine; mouse, EL4 tumour-bearing).
measured: betaine aldehyde; Mus musculus — “log2 fold change”: -1.43.
For metabolomics, measured: AICA ribonucleotide; mouse: “log2 fold change” read -0.349.
It gave 0.442 for “log2 fold change” (measured: gamma-glutamylleucine; mouse, EL4 tumour-bearing).
For measured: N6,N6,N6-trimethyllysine; Mus musculus: “log2 fold change” read -0.251.

Block 3
Cell line: A-375
Concentration: 100 µM
Time: 36 h
`CCCCCCOC(=O)NC(=N)c1ccc(NCc2nc3cc(C(=O)N(CCC(=O)OCC)c4ccccn4)ccc3n2C)cc1` has a viability of 1.88%.
The viability of `COc1nc2ccc(Br)cc2cc1[C@@H](c1ccccc1)[C@@](O)(CCN(C)C)c1cccc2ccccc12` is reported as 20.7%.
For `CCC(C)(C)C(=O)O[C@H]1C[C@@H](C)C=C2C=C[C@H](C)[C@H](CC[C@@H]3C[C@@H](O)CC(=O)O3)[C@H]21`, the viability was 28.4%.
`NC[C@@H]1O[C@H](O[C@H]2[C@@H](O)[C@H](O[C@@H]3[C@@H](O)[C@H](N)C[C@H](N)[C@H]3O[C@H]3O[C@H](CN)[C@@H](O)[C@H](O)[C@H]3N)O[C@@H]2CO)[C@H](N)[C@@H](O)[C@@H]1O` has a viability of 108%.
`O=c1c(-c2ccc(O)cc2)coc2cc(O[C@@H]3O[C@H](CO)[C@@H](O)[C@H](O)[C@H]3O)ccc12` gave a viability of 93.2%.
`O=C(O)CSCC(=O)NC1CCSC1=O` (centres unmarked) gave a viability of 68.2%.
`CN1CCN(c2c(F)cc3c(=O)c(C(=O)O)cn(CCF)c3c2F)CC1` has a viability of 30.2%.
With `CC[C@H]1OC(=O)[C@H](C)[C@@H](O[C@H]2C[C@@](C)(OC)[C@@H](O)[C@H](C)O2)[C@H](C)[C@@H](O[C@@H]2O[C@H](C)C[C@H](N(C)C)[C@H]2O)[C@](C)(O)C[C@@H](C)/C(=N\OCOCCOC)[C@H](C)[C@@H](O)[C@]1(C)O` the viability was 97.1%.

Block 4
Target: Fibroblast growth factor receptor 4 (FGFR4, Homo sapiens, UniProt P22455)
UniProt P22455, sequence (whole entry, looked up): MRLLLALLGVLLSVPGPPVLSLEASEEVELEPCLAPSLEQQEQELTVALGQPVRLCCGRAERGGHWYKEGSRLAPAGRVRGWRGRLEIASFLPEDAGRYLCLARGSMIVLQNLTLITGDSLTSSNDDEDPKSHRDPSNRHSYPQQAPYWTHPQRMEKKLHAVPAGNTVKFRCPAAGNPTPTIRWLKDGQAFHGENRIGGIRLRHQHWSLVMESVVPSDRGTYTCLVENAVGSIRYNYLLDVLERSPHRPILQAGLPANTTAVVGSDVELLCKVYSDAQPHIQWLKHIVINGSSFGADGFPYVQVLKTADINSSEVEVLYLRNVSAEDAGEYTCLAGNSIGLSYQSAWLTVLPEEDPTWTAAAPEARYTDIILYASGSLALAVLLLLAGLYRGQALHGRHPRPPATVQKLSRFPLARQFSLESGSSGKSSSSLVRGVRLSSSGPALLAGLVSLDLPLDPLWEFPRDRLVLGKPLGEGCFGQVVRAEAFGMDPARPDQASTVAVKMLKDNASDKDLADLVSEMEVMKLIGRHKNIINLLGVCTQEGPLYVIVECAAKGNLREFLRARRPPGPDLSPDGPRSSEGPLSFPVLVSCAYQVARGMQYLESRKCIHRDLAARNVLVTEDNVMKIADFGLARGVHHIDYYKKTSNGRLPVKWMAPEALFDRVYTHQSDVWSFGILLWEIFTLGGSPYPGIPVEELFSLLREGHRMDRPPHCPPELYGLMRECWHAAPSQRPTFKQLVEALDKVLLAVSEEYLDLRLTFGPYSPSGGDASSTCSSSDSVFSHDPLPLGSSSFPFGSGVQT
Read-out: enzyme activity
Action: inhibitor
Concentration: 0.5 µM
Reference: control
`Oc1ccc(-c2nc(-c3ccncc3)c(-c3ccc(F)cc3)[nH]2)cc1` gave a remaining activity of 92.9%.
For `Nc1ccc2ncnc(NCCc3ccc(Oc4ccccc4)cc3)c2c1`, the remaining activity was 104%.
`N#CC(C#N)=C(N)/C(C#N)=C/c1ccc(O)cc1` has a remaining activity of 91.1%.
With `O=C1NC(=O)C(c2cn(CCCn3ccnc3)c3ccccc23)=C1Nc1ccccc1` the remaining activity was 74.6%.
For `CC(C)[C@H](CO)Nc1nc(Nc2cc(N)cc(Cl)c2)c2ncn(C(C)C)c2n1`, the remaining activity was 93.4%.
`COc1ccc(CNC(=O)Nc2ncc([N+](=O)[O-])s2)cc1` has a remaining activity of 98.9%.
The remaining activity of `Cc1ccc(NC(=O)c2ccc(CN3CCN(C)CC3)cc2)cc1Nc1nc(-c2cccnc2)cs1` is reported as 89.8%.
The remaining activity of `Cc1nc(-c2ccccc2)c(-c2ccncc2)o1` is reported as 76.5%.
`Nc1[nH]nc2nc3ccccc3nc12` gave a remaining activity of 94.9%.
`COc1ccc(OC)c2c(=S)c3ccccc3[nH]c12` has a remaining activity of 91.1%.
With `COc1ccc(C(=O)Nc2sc3c(c2C(N)=O)CCCC3)cc1OC` the remaining activity was 105%.
`NCCNc1ncc(C(N)=O)c(Nc2cccc(C(F)(F)F)c2)n1` has a remaining activity of 76.2%.
`Cn1sc(=O)n(Cc2ccccc2)c1=O` has a remaining activity of 97.2%.
`C#Cc1cccc(Nc2ncnc3cc(OCCOC)c(OCCOC)cc23)c1` gave a remaining activity of 93.3%.
For `O=C1NC(=O)C(c2cn(CCCO)c3ncccc23)=C1c1cnccn1`, the remaining activity was 91.5%.
For `CNC(=O)c1cc(Oc2ccc(NC(=O)Nc3ccc(Cl)c(C(F)(F)F)c3)cc2)ccn1`, the remaining activity was 104%.
